Experimental data pooled from the literature.
Every numbered part comes from another study and shows a few of its results, in no order.

Block 1
Target: Interferon regulatory factor 5, full length, phosphomimetic (IRF5, Homo sapiens, UniProt Q13568-2, residues 1-514, K96S/S451D/S453D/S456D/S462D)
Method: protein-binding microarray
Form: double-stranded DNA, one strand shown
Matrix: in vitro
Tested at: 250 nM
Setting: 60-bp whole probe
Added: salmon DNA 0.4 mg/ml
Baseline: random background probes
Direction: higher = stronger binding
The log fluorescence of `GCCTAGCACTTAGGTATCGGTTCCGGTTAGTGCTAGGTCTTGATTCGCTTGACGCTGCTG` is reported as 7.77 z-score.
With `GCCTAGCACTCATATTTAAGGCCTATGACTGTGCTAGTCTTGATTCGCTTGACGCTGCTG` the log fluorescence was -0.122 z-score.
`GCCTAGCACTTAGGACTGCTTATCCCTTAGTGCTAGGTCTTGATTCGCTTGACGCTGCTG` gave a log fluorescence of -0.322 z-score.
`GCCTAGCACTTAGATATCGGGTTTTGATTAGTGCTAGTCTTGATTCGCTTGACGCTGCTG` gave a log fluorescence of 2.42 z-score.

Block 2
Target: Sal-like protein 4, full length isoform A (SALL4, Homo sapiens, UniProt Q9UJQ4, residues 1-1053)
Sequence of UniProt Q9UJQ4 (whole entry, looked up): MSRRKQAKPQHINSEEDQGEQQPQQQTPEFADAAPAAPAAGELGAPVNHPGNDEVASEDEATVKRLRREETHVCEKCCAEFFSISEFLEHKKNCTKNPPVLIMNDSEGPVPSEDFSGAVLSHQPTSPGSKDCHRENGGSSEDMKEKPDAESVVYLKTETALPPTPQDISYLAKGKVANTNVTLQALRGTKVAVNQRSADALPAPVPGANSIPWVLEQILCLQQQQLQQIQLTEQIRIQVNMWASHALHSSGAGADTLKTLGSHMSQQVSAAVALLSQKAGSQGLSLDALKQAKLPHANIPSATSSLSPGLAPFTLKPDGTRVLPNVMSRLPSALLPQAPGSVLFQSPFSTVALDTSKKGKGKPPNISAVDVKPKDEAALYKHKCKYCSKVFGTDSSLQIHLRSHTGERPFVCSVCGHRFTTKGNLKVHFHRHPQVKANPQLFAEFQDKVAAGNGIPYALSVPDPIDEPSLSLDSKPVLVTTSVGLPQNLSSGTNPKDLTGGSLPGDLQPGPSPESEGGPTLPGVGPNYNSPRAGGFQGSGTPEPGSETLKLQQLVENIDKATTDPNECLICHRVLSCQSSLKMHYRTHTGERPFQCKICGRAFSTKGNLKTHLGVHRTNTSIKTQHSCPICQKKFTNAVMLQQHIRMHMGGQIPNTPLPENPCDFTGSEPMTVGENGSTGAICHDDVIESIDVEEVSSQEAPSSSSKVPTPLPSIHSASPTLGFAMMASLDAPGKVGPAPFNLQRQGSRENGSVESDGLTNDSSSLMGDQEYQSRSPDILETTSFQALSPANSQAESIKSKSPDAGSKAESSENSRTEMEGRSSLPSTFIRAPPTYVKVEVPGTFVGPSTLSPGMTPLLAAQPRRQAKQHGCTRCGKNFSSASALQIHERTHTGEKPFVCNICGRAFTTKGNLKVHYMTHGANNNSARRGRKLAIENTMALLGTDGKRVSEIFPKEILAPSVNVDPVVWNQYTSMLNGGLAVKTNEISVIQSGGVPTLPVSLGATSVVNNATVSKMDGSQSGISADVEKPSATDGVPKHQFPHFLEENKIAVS
Method: universal PBM
Form: double-stranded DNA, one strand shown
Matrix: in vitro
Tested at: 600 nM
Setting: 8-mer, flanks averaged, mean of replicates
Direction: higher = stronger binding
For `ATGTCTCA`, the E-score was 0.169.
With `ATTCCGAC` the E-score was -0.051.
For `ACACAACG`, the E-score was 0.111.

Block 3
Target: Histone acetyltransferase KAT6A, winged helix 2, GST fusion (KAT6A, Homo sapiens, UniProt Q92794, residues 85-181)
Method: protein binding microarray
Form: double-stranded DNA, one strand shown
Matrix: in vitro
Tested at: not given
Setting: 8-mer, flanks averaged, mean of 2 arrays, mostly near background
Baseline: not given
Direction: higher = stronger binding
Residues (chain): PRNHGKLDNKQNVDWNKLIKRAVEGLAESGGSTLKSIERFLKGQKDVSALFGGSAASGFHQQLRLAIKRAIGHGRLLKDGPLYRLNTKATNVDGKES
With `CATTGAGC` the E-score was 0.0124.
The E-score of `CTTGTCCC` is reported as 0.161.
The E-score of `GATCGACA` is reported as -0.0194.
`GCCGGTGA` has an E-score of 0.0324.

Single results of other studies
`PhoQ, residues 284 288 289 292 302 303 ALASRC` gave a fold induction of 9.09 (PhoP, residues 12 14 15 18 19 SEGLL (Escherichia coli, UniProt P23836); Sort-seq, item: YFP reporter; E. coli; PhoQ-PhoP variant library, added: 10 µM Mg2+; baseline: high Mg2+ state, higher = stronger signaling).

Excerpt of the above (block 3):
`GCCGGTGA` has an E-score of 0.0324.
With `CATTGAGC` the E-score was 0.0124.
